Results collected from several papers.
Each numbered part is a random draw from the data of one study; scales do not carry over between parts.

Sample 1 — technique: RNAcompete; form: RNA; medium: in vitro; tested at: 20 nM; setting: 7-mer, probes averaged, single round; baseline: mean of 7-mers; direction: higher = stronger binding; measurement: 7-mer Z-score
Target: PABPC1L2, full length, GST fusion (mouse, UniProt A0ABA7IW68)
Residues (chain): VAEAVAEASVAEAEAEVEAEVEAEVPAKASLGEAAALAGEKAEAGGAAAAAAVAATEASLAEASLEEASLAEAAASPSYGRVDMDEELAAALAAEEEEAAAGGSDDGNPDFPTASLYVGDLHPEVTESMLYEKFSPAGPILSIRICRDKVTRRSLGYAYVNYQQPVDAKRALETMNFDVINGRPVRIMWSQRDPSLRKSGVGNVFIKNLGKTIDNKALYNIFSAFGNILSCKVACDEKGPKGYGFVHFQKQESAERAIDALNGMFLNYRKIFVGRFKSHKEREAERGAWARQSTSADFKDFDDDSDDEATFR
CGACGGA: -0.0699
GAGCGGC: 0.0243
CCGUACA: -0.2
UAAUAUC: -0.211
UGGAUAG: 0.0714
UCACUAU: -0.211
GUGGAGU: -0.0192
ACCGGUG: -0.0826
UCUAAAC: 0.407
UUACUGC: -0.333
GAAAAUC: 2.04
CAGUAGA: 0.0207
GGAGACG: 0.1
GUUCAAG: -0.0736
UUCACCU: -0.469
AGGAUGC: 0.124
AUUAUUU: -0.106
GAUAGCU: -0.311
UCAUGCG: -0.0989

Sample 2 — technique: protein binding microarray; form: double-stranded DNA, one strand shown; medium: in vitro; tested at: not given; baseline: not given; direction: higher = stronger binding; measurement: E-score
Target: Histone acetyltransferase KAT6A, both winged helices, GST fusion (KAT6A, Homo sapiens, UniProt Q92794, residues 1-181)
Setting: 8-mer, flanks averaged, mean of 2 arrays, mostly near background
Construct (chain): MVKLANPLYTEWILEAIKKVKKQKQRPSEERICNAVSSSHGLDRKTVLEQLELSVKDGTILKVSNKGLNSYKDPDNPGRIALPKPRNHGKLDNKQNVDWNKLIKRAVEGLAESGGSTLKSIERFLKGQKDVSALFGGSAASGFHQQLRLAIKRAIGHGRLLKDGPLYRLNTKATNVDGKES
CAGAATCG: 0.103
GACATTCC: -0.00839
GAAGGTAC: -0.122
CGCATGCG: 0.264
CGTATGAG: 0.00885
AGCCAAAC: 0.0708
CATCTGAC: -0.202
ATTTCTTA: -0.156
AGGCAAGA: -0.136
TCAACTCA: -0.245
CTACGAGC: 0.00132
GATTACCA: -0.078
GGACGGCA: 0.245
GGGCCCCC: -0.00327
AGGGCCGA: 0.0894
GAGTGAAA: -0.259
CCAGCTTC: -0.185
GCTCCCGA: -0.0277
CGGAGGAC: 0.139
AACGATGT: -0.0587
CAAACTAC: -0.182
CGTTTAAA: 0.0481
GGCAGCCA: -0.0297
GAAGGTCA: -0.187
CCTCTCTA: -0.157

Sample 3 — technique: universal PBM; form: double-stranded DNA, one strand shown; medium: in vitro; tested at: not given; direction: higher = stronger binding; measurement: E-score
Target: Sal-like protein 4, full length isoform B (SALL4, Homo sapiens, UniProt Q9UJQ4-2, residues 1-616)
Setting: 8-mer, flanks averaged, mean of replicates
GATGGATA: 0.00867
GCAATCGA: -0.105
GACCCAGC: -0.309
AAGAGTCC: -0.158
ATTTGTCA: 0.149
AACTATAA: 0.342
ACATGAAC: 0.154
GCTCACCC: -0.321
CACGTGCG: -0.225
CCCGAACG: -0.337
ACGTGCCG: -0.153
AGGAGGAC: -0.212
AATAGTAA: 0.29
TAATCAGA: 0.24
CTAGTTTA: 0.128
TAAGCGCA: -0.146
GAAGATAC: 0.125
AAGGACAC: -0.0663
ATACTCAG: 0.0877
GCACTTAA: 0.202
GGAATGCA: 0.056
TATTGGAA: 0.295
GGAAACCA: -0.218
GGGCACAC: -0.291
CTGACCAA: -0.123

Sample 4 — technique: RNA Bind-n-Seq; form: RNA; medium: in vitro; tested at: 365 nM; baseline: no-protein control; direction: higher = stronger binding; measurement: RBNS enrichment (R)
Target: RNA binding protein fox-1 homolog 2, RRM domain, GST-SBP tag (RBFOX2, Homo sapiens, UniProt O43251-10, residues 100-194)
Setting: natural RNA segment, single round, ends assumed
All sequences stand within: GGGAGUUCUACAGUCCGACGAUC … UGGAAUUCUCGGGUGCCAA
Residues (chain): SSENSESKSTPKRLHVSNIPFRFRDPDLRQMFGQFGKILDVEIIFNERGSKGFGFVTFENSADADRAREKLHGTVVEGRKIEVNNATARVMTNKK
UUUAAUAGCCCUUUUUAAUUAGAAAUUAAAACAGUUAAUUUAAUUAAAGAGUAGGGUUUUUUUCAGUAUUCUUGGUUAAUAUUUAAUUUCAACUAUUUAUGAGAUGUAUC: 0.67
UCCACCCAUCUCAGCCUCCCAAAGUGCUGGGAUUACAGGCGUGAGCCACCAUGCCCGGCCCAUAAGUACCGUUUUUGAGGUUCAGUCUUAAACAUUUGCUUUAAGAAAAC: 0.345
CUUCCUGUUUUUAUCUAAUAAAAUGCUAACCUGCCCUGAGUUUCCAUUACUGUGGGUGGGGUUCCCCUGGGCCAAACAGUGAUUUGUCUCCCUCAAUGUGUACACCGCUC: 0.38
GUAUUAUAUUUUUAUAGAAAUGUUUAUUUUUAAUGAUGUAAGAAAAAUUUUCCUUAGGCCGCAGAAAUCCUGCACUGUGAGCAUUUCAGAAGAGGUAUGUGAGACCCAGU: 0.539
GUGGGAGUGUGGAUGGGGAGGAAGGUUCUAGGCUCUCUUAUUUUUCUCAUUUCCCAAUGCCUCUCUGUGGGAGAGCUCCAUGCCAGUUUUCACCACGCUCAGGCAAAUAC: 0.333
CCUCCAGGCACGUCCCGGACCUGUGGGGCCCCAGAGAGGGGACAUUUCCCUCCUGGGAGAGAAGGAGAUCAGGGCAACUCGGAGAGGGCUGCGAGCAUUUCCCUCCCGGG: 0.348
CAGAAAUACAAGAAAAAUAGACUAUGUCAGGUCCUCAAGUUAUGAGUUAGGACCAACGACUAUUAACUUGCAUUCACAUUAUCCUCACAGAACCAAGAGUGGCAAUGCUU: 0.804
AAAUGUUUUCAAGAAAUCACUUAAGUGUUCAUAGACCAGUAUUUCUGACAGGUAAAAUGCUAAAAUAAGCUACCUGUAAUAAGUGUGGAUUAUAUUUUUGGGUUUUGUAG: 0.496
AGAGUCUCCUUUUCCCAUCCUUGGUGCAGACUGUGCCUGCCUGGACUCCGUAGAAAGCACUGGAUUUUGUGACAUGUAUAUUAAAAACAGGGCAUUUCAAAGUAAUUUUG: 0.881
GUCCAGAAGAGCAAUGGAGGAAGUGACAGCUAAUGUUGCAGUUCUUAUUGUAUGGCAUAGGACUGGCAUUAUAUAGCAGAAAUCAACUACUGUACAAUUUCUUGGGGUUA: 0.398
CUAGCCUCGCUCUUGGCAGGUACUCAGCGAAUGAAUGCUGUAUAUGUUGGGUGCAAAGUUCCCUACUUCCUGUGACUUCAGCUCUGUUUUACAAUAAAAUCUUGAAAAUG: 1.66
UACUGAGAUGAAGAUCGCCCAGCUGCCAGGACCACCCCAGGACAAGUUAGAGCACUGUUUAGCUCCUUUGUCUGUGUGAUAGACCUAAGAACUGUAUUAGUGUUGUACCA: 0.392

Sample 5 — technique: RNA Bind-n-Seq; form: RNA; medium: in vitro; tested at: 90 pmol; setting: 4-mer, random 30-nt RNA, single round; baseline: input library; direction: higher = stronger binding; measurement: 4-mer enrichment
Target: Eukaryotic initiation factor 4A-I (EIF4A1, Homo sapiens, UniProt P60842, residues 1-406, full length assumed)
Chain of UniProt P60842 (whole entry, looked up): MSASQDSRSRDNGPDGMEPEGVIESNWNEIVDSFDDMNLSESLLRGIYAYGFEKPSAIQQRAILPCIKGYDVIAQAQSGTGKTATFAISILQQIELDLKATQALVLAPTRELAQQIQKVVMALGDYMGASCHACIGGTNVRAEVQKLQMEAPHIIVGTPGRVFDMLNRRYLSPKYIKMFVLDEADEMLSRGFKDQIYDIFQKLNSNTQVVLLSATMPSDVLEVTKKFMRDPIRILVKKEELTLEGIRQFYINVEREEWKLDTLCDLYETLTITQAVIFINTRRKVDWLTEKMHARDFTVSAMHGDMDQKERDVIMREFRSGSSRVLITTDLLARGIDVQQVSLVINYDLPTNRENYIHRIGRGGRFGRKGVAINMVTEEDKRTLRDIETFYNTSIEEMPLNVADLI
Added: 3 µM iPr-DMDA-PatA, 2 mM ADP, 2 mM phosphate
CCGU: 0.812 fold
AUGA: 1.33 fold
AUAG: 1.24 fold
CCCC: 0.973 fold
CACA: 1.08 fold
GAUG: 0.986 fold
UUCA: 1.11 fold
ACGC: 0.909 fold
AUUG: 1.07 fold
AAGG: 1.05 fold
GGGC: 0.53 fold
ACCA: 1.21 fold
AGGU: 0.962 fold
GGUC: 0.785 fold
CCCA: 1.02 fold
CAAA: 1.34 fold
GUCC: 0.879 fold

Sample 6 — technique: aptamer microarray, sandwich; form: DNA with 2'F-ANA; medium: in vitro; tested at: 200 nM; added: Cy3 exosite-II aptamer, 400 nM; direction: higher = stronger binding; measurement: mean fluorescence intensity; strand: GGTTGGTGTGGTTGG
Target: Prothrombin, mature alpha-thrombin (F2, Homo sapiens, UniProt P00734)
Setting: whole 15-mer aptamer, many near background
2'F-ANA at 1 2 3 5 8 11 12 13 14: 61.1 a.u.
2'F-ANA at 1 2 7 8 9 10 12 13 14 15: 51.1 a.u.
2'F-ANA at 2 3 4 7 8 10 12 14: 237 a.u.
2'F-ANA at 1 3 4 5 6 7 9 12 13: 69.9 a.u.
2'F-ANA at 2 8 9 13 14: 130 a.u.
2'F-ANA at 2 3 6 7 8 9 10 11 14: 251 a.u.
2'F-ANA at 1 4 5 7 10 12 13 14 15: 48.5 a.u.
2'F-ANA at 3 6 8 9 12 14 15: 642 a.u.
2'F-ANA at 1 5 8 11 12 13: 81.7 a.u.
2'F-ANA at 5 6 7 11 14: 46 a.u.
2'F-ANA at 1 5 6 7 8 9 10 11 13: 52 a.u.
2'F-ANA at 1 3 11 13 14 15: 83 a.u.
2'F-ANA at 1 2 4 5 7 9 12 13 14 15: 49.1 a.u.
2'F-ANA at 1 3 5 6 8 9 10 11 13 14 15: 50.6 a.u.
2'F-ANA at 1 5 10 11 14 15: 49 a.u.
2'F-ANA at 2 5 7 11 14: 47 a.u.
2'F-ANA at 2 10 11 12 13: 159 a.u.
2'F-ANA at 1 3 4 6 8 11 12: 338 a.u.
2'F-ANA at 2 4 6 7 8 10 12 14 15: 101 a.u.
2'F-ANA at 1 3 4 7 8 11 13: 236 a.u.

A few entries again (sample 4):
UUUAAUAGCCCUUUUUAAUUAGAAAUUAAAACAGUUAAUUUAAUUAAAGAGUAGGGUUUUUUUCAGUAUUCUUGGUUAAUAUUUAAUUUCAACUAUUUAUGAGAUGUAUC: 0.67
UCCACCCAUCUCAGCCUCCCAAAGUGCUGGGAUUACAGGCGUGAGCCACCAUGCCCGGCCCAUAAGUACCGUUUUUGAGGUUCAGUCUUAAACAUUUGCUUUAAGAAAAC: 0.345
CUUCCUGUUUUUAUCUAAUAAAAUGCUAACCUGCCCUGAGUUUCCAUUACUGUGGGUGGGGUUCCCCUGGGCCAAACAGUGAUUUGUCUCCCUCAAUGUGUACACCGCUC: 0.38
GUAUUAUAUUUUUAUAGAAAUGUUUAUUUUUAAUGAUGUAAGAAAAAUUUUCCUUAGGCCGCAGAAAUCCUGCACUGUGAGCAUUUCAGAAGAGGUAUGUGAGACCCAGU: 0.539
GUGGGAGUGUGGAUGGGGAGGAAGGUUCUAGGCUCUCUUAUUUUUCUCAUUUCCCAAUGCCUCUCUGUGGGAGAGCUCCAUGCCAGUUUUCACCACGCUCAGGCAAAUAC: 0.333
CCUCCAGGCACGUCCCGGACCUGUGGGGCCCCAGAGAGGGGACAUUUCCCUCCUGGGAGAGAAGGAGAUCAGGGCAACUCGGAGAGGGCUGCGAGCAUUUCCCUCCCGGG: 0.348
CAGAAAUACAAGAAAAAUAGACUAUGUCAGGUCCUCAAGUUAUGAGUUAGGACCAACGACUAUUAACUUGCAUUCACAUUAUCCUCACAGAACCAAGAGUGGCAAUGCUU: 0.804
AAAUGUUUUCAAGAAAUCACUUAAGUGUUCAUAGACCAGUAUUUCUGACAGGUAAAAUGCUAAAAUAAGCUACCUGUAAUAAGUGUGGAUUAUAUUUUUGGGUUUUGUAG: 0.496
AGAGUCUCCUUUUCCCAUCCUUGGUGCAGACUGUGCCUGCCUGGACUCCGUAGAAAGCACUGGAUUUUGUGACAUGUAUAUUAAAAACAGGGCAUUUCAAAGUAAUUUUG: 0.881
GUCCAGAAGAGCAAUGGAGGAAGUGACAGCUAAUGUUGCAGUUCUUAUUGUAUGGCAUAGGACUGGCAUUAUAUAGCAGAAAUCAACUACUGUACAAUUUCUUGGGGUUA: 0.398
CUAGCCUCGCUCUUGGCAGGUACUCAGCGAAUGAAUGCUGUAUAUGUUGGGUGCAAAGUUCCCUACUUCCUGUGACUUCAGCUCUGUUUUACAAUAAAAUCUUGAAAAUG: 1.66
UACUGAGAUGAAGAUCGCCCAGCUGCCAGGACCACCCCAGGACAAGUUAGAGCACUGUUUAGCUCCUUUGUCUGUGUGAUAGACCUAAGAACUGUAUUAGUGUUGUACCA: 0.392
